Measured values gathered from unrelated publications.
Lines come from different studies, so protocols differ. “And” joins repeats or separate records; there may be more than shown. ± gives the spread as reported.
prp N63Q: Ribosomal processing cysteine protease Prp (prp, Staphylococcus aureus, UniProt Q2FXS9, N63Q)
Chain of UniProt Q8NEV4 (whole entry, looked up): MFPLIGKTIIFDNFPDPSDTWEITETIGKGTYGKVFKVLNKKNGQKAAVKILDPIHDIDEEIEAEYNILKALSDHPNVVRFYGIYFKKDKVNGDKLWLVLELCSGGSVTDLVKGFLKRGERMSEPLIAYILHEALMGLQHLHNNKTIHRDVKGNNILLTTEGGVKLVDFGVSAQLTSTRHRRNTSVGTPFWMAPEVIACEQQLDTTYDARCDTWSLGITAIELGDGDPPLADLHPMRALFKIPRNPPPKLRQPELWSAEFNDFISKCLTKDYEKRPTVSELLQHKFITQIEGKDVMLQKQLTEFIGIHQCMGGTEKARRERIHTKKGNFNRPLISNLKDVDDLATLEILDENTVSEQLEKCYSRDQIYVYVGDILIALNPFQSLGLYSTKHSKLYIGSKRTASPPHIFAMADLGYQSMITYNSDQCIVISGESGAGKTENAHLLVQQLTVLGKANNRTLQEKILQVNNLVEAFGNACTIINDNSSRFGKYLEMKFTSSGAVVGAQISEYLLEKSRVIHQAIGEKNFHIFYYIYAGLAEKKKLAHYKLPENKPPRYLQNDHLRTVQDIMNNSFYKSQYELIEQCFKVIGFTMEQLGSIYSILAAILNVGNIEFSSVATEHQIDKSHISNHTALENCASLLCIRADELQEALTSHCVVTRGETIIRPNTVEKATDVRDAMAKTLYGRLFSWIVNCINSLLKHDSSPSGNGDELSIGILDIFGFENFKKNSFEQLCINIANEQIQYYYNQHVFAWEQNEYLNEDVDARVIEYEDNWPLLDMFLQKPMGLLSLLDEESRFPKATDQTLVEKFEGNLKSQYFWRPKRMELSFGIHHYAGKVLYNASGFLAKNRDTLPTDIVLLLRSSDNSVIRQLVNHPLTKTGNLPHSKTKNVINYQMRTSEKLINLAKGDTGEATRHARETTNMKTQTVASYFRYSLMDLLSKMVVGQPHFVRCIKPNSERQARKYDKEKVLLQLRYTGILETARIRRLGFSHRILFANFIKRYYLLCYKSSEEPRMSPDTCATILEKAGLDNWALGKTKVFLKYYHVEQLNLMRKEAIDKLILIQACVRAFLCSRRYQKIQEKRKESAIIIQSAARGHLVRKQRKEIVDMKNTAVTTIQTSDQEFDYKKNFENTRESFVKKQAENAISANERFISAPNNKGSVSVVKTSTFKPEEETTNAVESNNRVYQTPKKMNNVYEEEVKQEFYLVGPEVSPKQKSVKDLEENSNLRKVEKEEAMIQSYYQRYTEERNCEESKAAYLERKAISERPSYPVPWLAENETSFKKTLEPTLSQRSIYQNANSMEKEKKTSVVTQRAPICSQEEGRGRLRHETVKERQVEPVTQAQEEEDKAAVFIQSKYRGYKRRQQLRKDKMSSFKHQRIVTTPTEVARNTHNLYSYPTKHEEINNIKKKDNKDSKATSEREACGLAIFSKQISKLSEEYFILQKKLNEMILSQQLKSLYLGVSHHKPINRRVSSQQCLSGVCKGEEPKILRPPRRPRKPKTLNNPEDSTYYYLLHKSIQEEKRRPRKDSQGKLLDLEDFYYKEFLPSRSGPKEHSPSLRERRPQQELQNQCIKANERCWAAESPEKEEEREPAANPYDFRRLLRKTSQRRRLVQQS
Chain of UniProt Q9NS75 (whole entry, looked up): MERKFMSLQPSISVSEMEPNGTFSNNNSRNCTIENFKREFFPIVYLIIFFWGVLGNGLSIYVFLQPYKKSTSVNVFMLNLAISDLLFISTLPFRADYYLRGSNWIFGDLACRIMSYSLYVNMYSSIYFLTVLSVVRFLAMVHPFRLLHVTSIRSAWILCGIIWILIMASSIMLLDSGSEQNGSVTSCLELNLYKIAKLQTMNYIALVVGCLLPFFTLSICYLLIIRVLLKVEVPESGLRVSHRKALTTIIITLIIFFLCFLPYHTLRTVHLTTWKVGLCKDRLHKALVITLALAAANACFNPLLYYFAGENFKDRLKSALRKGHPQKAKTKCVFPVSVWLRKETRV
Chain of UniProt P41146 (whole entry, looked up): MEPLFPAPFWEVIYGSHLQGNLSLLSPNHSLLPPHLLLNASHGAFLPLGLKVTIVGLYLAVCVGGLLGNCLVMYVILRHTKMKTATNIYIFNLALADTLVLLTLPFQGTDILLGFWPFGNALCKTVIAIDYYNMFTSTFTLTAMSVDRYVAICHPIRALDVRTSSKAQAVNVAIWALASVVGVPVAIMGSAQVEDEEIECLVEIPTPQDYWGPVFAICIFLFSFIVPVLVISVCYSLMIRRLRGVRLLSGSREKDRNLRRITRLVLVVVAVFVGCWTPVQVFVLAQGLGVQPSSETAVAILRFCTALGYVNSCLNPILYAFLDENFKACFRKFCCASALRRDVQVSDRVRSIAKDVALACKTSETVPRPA
Chain of UniProt Q16566 (whole entry, looked up): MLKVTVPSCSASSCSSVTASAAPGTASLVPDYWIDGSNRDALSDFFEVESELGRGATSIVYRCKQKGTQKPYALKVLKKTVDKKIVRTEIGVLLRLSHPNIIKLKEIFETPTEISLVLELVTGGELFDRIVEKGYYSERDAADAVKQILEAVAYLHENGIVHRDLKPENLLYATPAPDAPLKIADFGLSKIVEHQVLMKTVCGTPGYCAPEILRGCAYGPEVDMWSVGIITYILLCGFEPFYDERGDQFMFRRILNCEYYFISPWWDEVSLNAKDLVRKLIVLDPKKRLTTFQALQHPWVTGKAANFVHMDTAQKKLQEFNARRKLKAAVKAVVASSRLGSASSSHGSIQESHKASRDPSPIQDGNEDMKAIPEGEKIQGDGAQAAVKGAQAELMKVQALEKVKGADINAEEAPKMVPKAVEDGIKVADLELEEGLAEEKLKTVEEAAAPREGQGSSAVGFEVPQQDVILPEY
Chain of UniProt P27361 (whole entry, looked up): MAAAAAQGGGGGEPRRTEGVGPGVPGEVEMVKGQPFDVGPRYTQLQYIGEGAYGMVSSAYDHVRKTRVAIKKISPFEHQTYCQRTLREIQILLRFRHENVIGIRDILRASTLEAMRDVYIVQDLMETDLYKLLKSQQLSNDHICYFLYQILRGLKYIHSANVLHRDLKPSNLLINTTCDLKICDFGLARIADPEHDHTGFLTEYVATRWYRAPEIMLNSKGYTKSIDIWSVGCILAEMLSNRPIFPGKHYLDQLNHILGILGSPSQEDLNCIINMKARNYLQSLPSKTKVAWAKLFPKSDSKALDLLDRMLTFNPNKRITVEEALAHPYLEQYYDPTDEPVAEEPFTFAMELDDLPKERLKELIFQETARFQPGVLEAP

O=C(Nc1cnccc1Cl)N1CCN(Cc2ccc3c(c2)OC(F)(F)O3)CC1
inhibition (Calcium/calmodulin-dependent protein kinase type IV (CAMK4, Homo sapiens, UniProt Q16566); enzyme activity, inhibitor; 50 µM, together with: autocamtide-2): 4%

COc1ccc(N2C(=O)N(c3c(C)cccc3Cl)Cc3cnc(Nc4ccc(C5CCN(C)CC5)cc4OC)nc32)nc1
inhibition (Mitogen-activated protein kinase 3 (MAPK3, Homo sapiens, UniProt P27361); kinase activity; 0.5 µM): 4.41%

CC(=O)NC[C@H]1[C@H](O)[C@H](O)[C@@H]2[C@H](O)C[C@@H](CO)N21
inhibition (β-N-acetylglucosaminidase; enzyme activity, inhibitor, colorimetric; Canavalia ensiformis; 0.644 nM, together with: p-nitrophenyl GlcNAc substrate): 51.3% and 49.1%

COc1ccc(NC(=O)c2ccc(C(=N)N(C)C)cc2)c(C(=O)Nc2ccc(Cl)cn2)c1
inhibition (prp N63Q; enzyme activity, inhibitor; 10 µM, prp 21.4 nM, together with: FITC peptide substrate 0.5 µM): 27.2 ± 20%

CC[C@H](C)[C@H](NC(=O)[C@H](Cc1ccccc1)NC(=O)[C@H](CCC(=O)O)NC(=O)[C@H](CCCNC(=N)N)NC(=O)[C@H](C)NC(=O)[C@H](C)NC(=O)[C@H](CCC(N)=O)NC(=O)[C@H](CCC(=O)O)NC(=O)[C@H](CCC(=O)O)NC(=O)[C@H](CC(C)C)NC(=O)[C@H](Cc1ccc(O)cc1)NC(=O)[C@H](CO)NC(=O)[C@H](CO)NC(=O)[C@@H](NC(=O)[C@H](CC(=O)O)NC(=O)[C@H](CO)NC(=O)[C@@H](NC(=O)[C@H](Cc1ccccc1)NC(=O)[C@@H](NC(=O)CNC(=O)[C@H](CCC(=O)O)NC(=O)[C@H](C)NC(=O)CCc1c[nH]cn1)[C@@H](C)O)[C@@H](C)O)C(C)C)C(=O)N[C@@H](C)C(=O)N[C@@H](Cc1c[nH]c2ccccc12)C(=O)N[C@@H](CC(C)C)C(=O)N[C@H](C(=O)N[C@@H](CCCNC(=N)N)C(=O)NCC(=O)N[C@@H](CCCNC(=N)N)C(=O)N[C@@H](CCCCNC(=O)COCCOCCNC(=O)COCCOCCNC(=O)CC[C@H](NC(=O)CCCCCCCCCCCCCCCCC(=O)O)C(=O)O)C(=O)NCC(=O)NCC(=O)N[C@@H](CO)C(=O)N[C@@H](CCCCNc1c(NCCCCCN(O)C(=O)CCC(=O)NCCCCCN(O)C(=O)CCC(=O)NCCCCCN(O)C(C)=O)c(=O)c1=O)C(=O)O)C(C)C [zirconium-89 labelled]
tissue uptake (rat, blood; iv, 3 nmol/kg, 168 h, ex vivo): 0.03 %ID/g

COc1cc(Nc2ncc(F)c(Nc3ccc4c(n3)NC(=O)C(C)(C)O4)n2)cc(OC)c1OC
inhibition (Myosin-IIIa (MYO3A, Homo sapiens, UniProt Q8NEV4); KINOMEscan; 10 µM): 10%

CO[C@H]1C[C@@H]2CC[C@@H](C)[C@@](O)(O2)C(=O)C(=O)N2CCCC[C@H]2C(=O)O[C@H]([C@H](C)C[C@@H]2CC[C@@H](OC(=O)NCCOCCOCCOCCOCCOCCOCCOCCOCCC(=O)N3CCc4cc(Cn5nc(-c6ccc7oc(N)nc7c6)c6c(N)ncnc65)ccc4C3)[C@H](OC)C2)C[C@@H](O)[C@H](C)/C=C(\C)[C@@H](O)[C@@H](OC)C(=O)[C@H](C)C[C@H](C)/C=C/C=C/C=C/1C
TRAE incidence (phase 1 dose escalation, refers to: vomiting; advanced solid tumour patients; intravenous, 16 mg weekly, grade ≥3): 0%

CN(C(=O)n1cnc(-c2ccc[n+]([O-])c2)c1)C1CCCCC1
inhibition (Cysteinyl leukotriene receptor 2 (CYSLTR2, Homo sapiens, UniProt Q9NS75); radioligand binding; 10 µM, together with: [3H]LTD4): -2%

CC[C@H](C)[C@H](NC(=O)[C@@H](NC(=O)[C@H](CCCCN)NC(=O)[C@H](Cc1c[nH]cn1)NC(=O)[C@H](Cc1ccc(O)cc1)NC(=O)[C@H](CCSC)NC(=O)[C@@H](N)CCCNC(=N)N)C(C)C)C(=O)N[C@H](C(=O)N[C@@H](Cc1ccccc1)C(=O)O)[C@@H](C)O
IC50 (HLA class I histocompatibility antigen, A alpha chain, allele A*24:02 (Homo sapiens, UniProt P04439); binding): 502 nM

O=C(Nc1cccnn1)N1CCC(=Cc2cccc(Oc3ccc(C(F)(F)F)cn3)c2)CC1
inhibition (kainate receptor, rat; binding; 50 µM, together with: [3H]kainic acid): 8%

C[C@H](NC(=O)Cc1cc(F)cc(F)c1)C(=O)N[C@H](C(=O)OC(C)(C)C)c1ccccc1
inhibition (prp N63Q; enzyme activity; 10 µM, 21.4 nM enzyme dimer, together with: 0.5 µM FITC-labelled peptide substrate): -15.1 ± 21.2%

CN1CCN(c2cc(-c3ccncc3)c(-c3ccc4ccccc4c3)nn2)CC1
inhibition (Nociceptin receptor (OPRL1, Homo sapiens, UniProt P41146); antagonist, FLIPR; 10 µM): 1%

COc1cc2c(Oc3ccc4[nH]c(C)cc4c3F)ccnc2cc1OCC1(N)CC1
grade 1 or 2 Leukopenia (paediatric recurrent refractory sarcoma; 12 mg): 36.4%

Excerpt of the above:
CN1CCN(c2cc(-c3ccncc3)c(-c3ccc4ccccc4c3)nn2)CC1
inhibition (Nociceptin receptor (OPRL1, Homo sapiens, UniProt P41146); antagonist, FLIPR; 10 µM): 1%

C[C@H](NC(=O)Cc1cc(F)cc(F)c1)C(=O)N[C@H](C(=O)OC(C)(C)C)c1ccccc1
inhibition (prp N63Q; enzyme activity; 10 µM, 21.4 nM enzyme dimer, together with: 0.5 µM FITC-labelled peptide substrate): -15.1 ± 21.2%
